Measurements pooled from the literature.
Lines come from different studies, so protocols differ. Where no end group is shown, it is not given here.
B1: disulfide; chain GIFSSRKCKTPSKTFKGICTRDSNCDTSCRYEGYPAGDCKGIRRRCMCSKPC (disulfide (positions not given here))

B1
MIC (Botrytis cinerea; fungal growth): 1.5 µM

tunicamycin
MIC (Staphylococcus aureus; EUCAST broth microdilution; N315 MRSA; 18-24 h, 37 °C): > 64 µg/mL

Polymyxin B
MIC (Helicobacter pylori; broth microdilution; SS1, BHI broth, 7% FBS; 48 h, 37 °C, microaerobic): 2 µg/mL

colistin sulfate
MIC (Pseudomonas aeruginosa; broth microdilution; C5 clinical isolate): 6.8 µM

Teicoplanin A2-2
MIC (Enterococcus faecium; vancomycin-susceptible): 0.5 µg/mL

colistin
MIC (Klebsiella pneumoniae; broth microdilution; OmpK36-truncated, KPC-2): 32 µg/mL

ceftiofur sodium
MIC (Staphylococcus aureus; USA300; alone, median and range): 16 µg/mL

polymyxin B
MIC (Neisseria gonorrhoeae; broth dilution; CDC-FDA AR Bank #0187): 188 µg/mL

insulin human
fold change (measured: GOT2 mRNA; EcoHIV-infected mouse, brain; i.p., dose not given; reference: PBS): 1.05

DAPT
MIC (Enterococcus faecalis; ATCC 51575 vancomycin-resistant): 12.5 µg/mL

Polymyxin B
MIC (Klebsiella pneumoniae; broth microdilution; KPC-127 producing): 32 µg/mL

colistin
MIC (Pseudomonas aeruginosa; 1188712 multidrug-resistant): 1 µg/mL

thiostrepton
MIC (Enterococcus faecium; VanA vancomycin-resistant): 0.06 µg/mL

colistin
MIC (Pseudomonas aeruginosa; GFP-expressing, RPMI with 10% FBS; 18 to 24 h, 37 °C): 0.98 µM

Polymyxin B
MIC (Klebsiella pneumoniae; broth microdilution, MH medium; carbapenem-resistant NCCP 15866; 16 h, 37 °C): 2 µM
